Results from different studies.
Every numbered part comes from another study and shows a few of its results, in no order. Substitutions count along the parent as printed.

Series 1 — target: CCNF, cyclin fold, Cln2 fusion (human); technique: yeast growth competition, sequencing; sample: yeast; notes: strong parent motif; reference: not given; direction: higher = stronger binding; endpoint: normalised enrichment score
Starting sequence: NPAT docking peptide (human); PCHRRVLCFDSTT
PCHRRVLCLDSTT [F9L]: 0.562
PCHRRVLCFDSAT [T12A]: 3.46
PCHRRALCFDSTT [V6A]: 5.25
PCHRRVLCFDSTA [T13A]: 3.6
ACHRRVLCFDSTT [P1A]: 4.56
PCHRRVLCADSTT [F9A]: 0.681
PCHARVLCFDSTT [R4A]: 4.06
PCHRKVLCLDSTT [R5K F9L]: 0.614
PCHRRVLCFDATT [S11A]: 3.8

Series 2 — target: HLF, bZIP domain (human); technique: DHFR protein complementation; sample: yeast; reference: wild-type JUN-FOS pair; direction: higher = stronger binding; endpoint: binding fitness
Notes: single substitutions, most at no-binding floor
Starting sequence: JUN, bZIP domain (human); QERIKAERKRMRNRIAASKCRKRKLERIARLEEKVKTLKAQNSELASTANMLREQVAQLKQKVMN; partner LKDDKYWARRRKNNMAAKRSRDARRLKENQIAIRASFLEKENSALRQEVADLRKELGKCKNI
R30G: -1.37 natural log
K34Q: -1.46 natural log
Q55M: -1.37 natural log
N42I: -1.35 natural log
T48I: -1.44 natural log
M51E: -1.34 natural log
E33V: -1.44 natural log
E33F: -1.47 natural log
S47W: -1.43 natural log
V35T: -1.2 natural log
Q55G: -1.44 natural log
A49S: -1.41 natural log
A40C: -1.44 natural log
K34S: -1.47 natural log
A40I: -1.29 natural log
A57V: -1.51 natural log
L31Q: -1.46 natural log
A57L: -1.47 natural log
E32A: -1.35 natural log

Series 3 — technique: DHFR PCA, deep sequencing; sample: yeast; together with: (+)-ABA 0.39 µM; reference: wild-type fitted maximum; direction: higher = stronger binding; endpoint: relative binding score
Target: ABI1, truncated, D143A, DHFR fusion (Arabidopsis thaliana)
Notes: methotrexate growth selection, single substitutions
Starting sequence: PYL1, truncated, DHFR fusion (Arabidopsis thaliana); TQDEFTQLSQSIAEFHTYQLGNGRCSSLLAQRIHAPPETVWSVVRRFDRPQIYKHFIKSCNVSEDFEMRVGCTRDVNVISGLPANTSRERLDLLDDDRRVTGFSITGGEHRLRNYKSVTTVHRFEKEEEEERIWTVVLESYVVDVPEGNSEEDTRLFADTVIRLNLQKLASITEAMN
D159M: -16.5%
L138C: 2.52%
Q31P: -8.92%
Y115I: -4.76%
C60L: 7.31%
V43G: -5.03%
H55E: 36.1%
S171A: 54.8%
E152P: -16%
K126I: 43.3%
I12T: 2.58%
V40S: -2.28%
I172C: -3.13%
C72R: 1.86%
R113G: 12.2%
A30M: 57.4%
D96I: -8.06%
W41G: -3.73%
I172K: -15%
A35K: -3.73%
R69M: 26%
R155D: -39.8%
E152K: -2.09%
E147N: 21.2%
T86G: 15.6%

Series 4 — technique: RNA Bind-n-Seq; molecule type: RNA; sample: in vitro; tested at: 365 nM; reference: no-protein control; direction: higher = stronger binding; endpoint: RBNS enrichment (R)
Target: RNA binding protein fox-1 homolog 2, RRM domain, GST-SBP tag (RBFOX2, Homo sapiens, UniProt O43251-10, residues 100-194)
Notes: natural RNA segment, single round, ends assumed
Shared flanks, not repeated: GGGAGUUCUACAGUCCGACGAUC … UGGAAUUCUCGGGUGCCAA
Residues (chain): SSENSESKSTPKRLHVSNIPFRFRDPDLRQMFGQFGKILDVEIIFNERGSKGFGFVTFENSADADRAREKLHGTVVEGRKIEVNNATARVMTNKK
UAAAUAUUAACCAGGUUAGUGUUGAGUUAGAAAUUACAUUUCUGAGUUCAAGCGUUGUCUUUUUAAGUUUAAAAAACUAUAAAGGGUUGUUUUUACUAGGUAGACUGGCA: 0.624
UCCUAGGACUCUGUACUUGAUUUUAAGCACUGGAGGAAACACCUCAGCAGUUUUGUGGUCUGCUAAUUGUGUGCUGCACACACAGCUGCCUGCUCUAGGGCCUGCCCAGC: 0.267
CUUACACAUUUGAGGACCGAAUCAACUUUGCCGUGUUCCCAUCCCUGCAGGGGGGCCCCCACAAUCAUGCCAUUGCUGCAGUAGCUGUGGCCCUAAAGCAGGCCUGCACC: 0.209
AGUCUCCUGCUAGUCUGACUCCUGAAGCAUCAGACCCUGUCAUACUGUAUUGACUGUGUAUGUGCCUUUCACCUUGAGCAUGCUUCAGGAAUUUUUUUUUUUCUUAAACC: 0.891
UCCCUAACCCCUUGUCCGCAAGGGGUGAUGGCCGGCUGGUUGUGGGCACUGGCGGUCAAGUGUGGAGGAGAGGGGUGGAGGCUGCCCCAUUGAGAUCUUCCUGCUGAGUC: 0.603
UGUGAUUAGAGAACCUUGGACAUUUUGCUGCUAAAGAAUCUUUUUUCCCCUCUCCCCCUUCCUGACCCUACUUGCACUGCUGUGGAUUUUUUUAAGAGAAGCAAAAACAA: 1
UGACUCUGCAGUGCCAGCUUGGACAGAUUGAGGUCUCUGUGGCUUUGGUGACCCUGCUUAAGCAUUCCCACCGUGUCCCAGCUCUGCUCUAGGACUGCCUCCCACUGCGG: 0.496
UUUGAGAUUCUGUAGGAGGGAGGGAAGGACAGCACCUGUGGCCACCUUCCCUCUUCCGGAUCUGUUUUGGUCUGGACUAUGGGCUCAUCAGGCCCAGGAUCCCGGACCAA: 0.247
